Assay results collected from several papers.
Every numbered part comes from another study and shows a few of its results, in no order.

Set 1
Target: Protein C-ets-1 (ETS1, Homo sapiens, UniProt P14921, residues 1-441, Y397A, full length assumed)
Method: protein-binding microarray
Molecule type: double-stranded DNA, one strand shown
Medium: in vitro
Concentration: not given
Notes: k-mer, scored over probes, only values ≥0.25
Direction: higher = stronger binding
Target sequence (chain): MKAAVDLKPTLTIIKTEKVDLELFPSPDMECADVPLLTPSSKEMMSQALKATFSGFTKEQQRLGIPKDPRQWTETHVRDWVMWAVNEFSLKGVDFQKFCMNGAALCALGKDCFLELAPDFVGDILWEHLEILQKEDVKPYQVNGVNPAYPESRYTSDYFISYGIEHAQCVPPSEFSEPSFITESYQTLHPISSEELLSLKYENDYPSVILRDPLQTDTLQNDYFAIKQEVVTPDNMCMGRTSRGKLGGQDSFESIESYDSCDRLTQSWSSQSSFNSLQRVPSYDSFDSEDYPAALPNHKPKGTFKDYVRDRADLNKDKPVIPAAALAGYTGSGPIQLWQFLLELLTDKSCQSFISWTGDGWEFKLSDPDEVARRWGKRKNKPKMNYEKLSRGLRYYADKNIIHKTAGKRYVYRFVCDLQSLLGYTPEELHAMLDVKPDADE
The E-score of `ACAAATCG` is reported as 0.293.
For `GTATACAA`, the E-score was 0.266.
`GGATGGCA` has an E-score of 0.286.
`GGGCGGAA` gave an E-score of 0.279.
The E-score of `CCGGCAAA` is reported as 0.297.
For `TCGAACAA`, the E-score was 0.302.
The E-score of `GGCTACGA` is reported as 0.251.
With `ATATGTCG` the E-score was 0.346.
The E-score of `TATGTCGA` is reported as 0.272.
`CGTTTGGC` has an E-score of 0.264.

Set 2
Target: Ras GTPase-activating protein-binding protein 1, full length (G3BP1, Homo sapiens, UniProt Q13283)
Sequence of UniProt Q13283 (whole entry, looked up): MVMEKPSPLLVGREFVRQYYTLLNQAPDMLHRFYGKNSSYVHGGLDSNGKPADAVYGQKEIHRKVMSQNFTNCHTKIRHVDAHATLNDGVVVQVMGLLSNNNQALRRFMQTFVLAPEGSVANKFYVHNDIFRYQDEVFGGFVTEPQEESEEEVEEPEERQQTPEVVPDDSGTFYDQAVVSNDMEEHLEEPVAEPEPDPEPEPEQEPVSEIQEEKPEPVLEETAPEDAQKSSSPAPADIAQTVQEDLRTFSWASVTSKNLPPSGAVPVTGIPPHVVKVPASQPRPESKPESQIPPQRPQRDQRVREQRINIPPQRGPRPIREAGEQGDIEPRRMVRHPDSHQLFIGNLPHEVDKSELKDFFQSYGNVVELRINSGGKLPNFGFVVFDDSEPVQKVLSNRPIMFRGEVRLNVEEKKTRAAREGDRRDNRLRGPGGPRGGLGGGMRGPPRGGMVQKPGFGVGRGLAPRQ
Method: RNA Bind-n-Seq
Molecule type: RNA
Medium: in vitro
Concentration: 200 nM
Notes: whole 134-nt RNA, ends assumed
With: 150 mM LiCl
Reference: input library
Direction: higher = stronger binding
Each molecule: 7-deaza-guanosine replaces G
The log2 enrichment of `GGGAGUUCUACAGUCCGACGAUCUGGGCUGGAUGGCUCAGUUCCCCCAGACCUGGACUGGAAGGGCCAGCCACCUGCACCUCCUAAAAAGGGACUGCUGCAGAGACUCUUCAGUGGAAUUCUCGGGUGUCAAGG` is reported as -0.76.
For `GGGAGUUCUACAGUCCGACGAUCGUCCUGUGCUACACAUCGUAUGUACCGAAUCGGCCCCCGGGGCCCCCGGGGCCCCCGGAAAGUAUUAUGUUACGCCGUUCGGAUCUGCACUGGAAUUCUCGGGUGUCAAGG`, the log2 enrichment was -1.74.
The log2 enrichment of `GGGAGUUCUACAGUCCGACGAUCUUUCUCCAAGGACAUCAAGGUGCCCAAGAGCCGCUACCUGGGCUACAUCAAGGACUACGAGGGAGCGACGCUGAUGGAGUGUGAGCUGAAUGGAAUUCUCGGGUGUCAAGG` is reported as -1.5.
For `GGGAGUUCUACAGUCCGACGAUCCCCGAGCCGGAGAGGGAGCGCGAGCCGCGCCGGCCCCGGUCGGGCCUCCGAAACCAUGAACUUUCUGCUGUCUUGGGUGCAUUGGAGCCUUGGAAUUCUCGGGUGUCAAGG`, the log2 enrichment was 0.643.
`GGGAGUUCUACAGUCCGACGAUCUCAAGUCCUGUGCUACACAUCGUAUGUACCGAAUCGGAAAGGGAAAGGGAAAGGAAAGUAUUAUGUUACGCCGUUCGGAUCUGCACUUCCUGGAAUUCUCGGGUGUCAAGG` gave a log2 enrichment of -0.152.
`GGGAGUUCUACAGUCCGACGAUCUUCCUCAAGUCCUGUGCUACACAUCGUAUGUACCGAAUCGGUGGAGGUGGAAAGUAUUAUGUUACGCCGUUCGGAUCUGCACUUCCAGCAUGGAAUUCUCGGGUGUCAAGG` gave a log2 enrichment of -0.848.

Set 3
Target: Hepatocyte nuclear factor 3-alpha (Foxa1, Mus musculus, UniProt P35582, residues 1-468, full length assumed)
Method: EMSA with sequencing
Molecule type: double-stranded DNA, one strand shown
Medium: in vitro
Concentration: 10 and 20 nM
Notes: whole designed probe, mean of two concentrations, ends assumed
Reference: negative control set to 0
Direction: higher = stronger binding
Residues (chain): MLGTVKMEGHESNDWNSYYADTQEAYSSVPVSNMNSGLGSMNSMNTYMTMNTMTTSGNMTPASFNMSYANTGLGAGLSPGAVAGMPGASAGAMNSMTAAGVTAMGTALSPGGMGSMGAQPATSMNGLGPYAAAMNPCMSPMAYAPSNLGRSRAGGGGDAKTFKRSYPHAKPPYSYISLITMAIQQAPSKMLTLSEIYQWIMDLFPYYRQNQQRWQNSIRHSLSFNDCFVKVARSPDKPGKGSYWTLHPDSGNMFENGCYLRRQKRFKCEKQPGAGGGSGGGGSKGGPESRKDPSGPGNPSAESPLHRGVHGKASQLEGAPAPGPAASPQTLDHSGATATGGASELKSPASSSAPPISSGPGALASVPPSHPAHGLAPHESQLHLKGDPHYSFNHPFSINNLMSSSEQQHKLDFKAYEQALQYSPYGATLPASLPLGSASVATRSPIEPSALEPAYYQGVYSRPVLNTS
`GTGAGCGGTGCCCATTGATGGGGAACAGTTTTATTTATTTGCTTTTTATTTATATTGCTTTTTCCTTATTTTCCTCATAGGCCCACTAATAATTTATTTGAAAAATATTTAGTTATTCCATGTTTACTTATTTCAATATAGTCATTTCTATTTTATACAGTAATTTATTTCTATCTGTTTTCCTTAGGATTCTTGATTCTAACAGCTTGAGTTAATGCTTTTCACTGGGATCGTGGGGAC`: “normalised bound fraction” 0.52 ratio.
For `GTGAGCGGTGCCCATTGATGGGGAACTCCTTCTCTCCAGCTCCACCTGGTCCTGGGAAGAGGGACTGCCACACCGGATGGACTGAGGTCTGAAGCCAGCTCCTGCCACTTGTGCTCTGTGTCATTTAGGCATCTCCCTCTCTGGCTTCCAGTTCCTCCTCTATGAGTAGGTAATGGGGTTACGCTCCATTTCTTGTGGGGAAATGTGAAGCTCGTATGATTTCACTGGGATCGTGGGGAC`, “normalised bound fraction” read -0.0857 ratio.
Under “normalised bound fraction”, `GTGAGCGGTGCCCATTGATGGGGAACTTCTCTTTTTAACTTTCTGCATTTCATTTGCTCTAGGTTCATGTCTTACATCTAGCTAGTATTTTTTTCACTTCAATCTGCGATTTTAACTCATTGTTTACATAGTATTTCCATCTATTTTTCTATAAGACGTTCTCGTTCTCATCTAATGAACACTTTTATTAGTTAGACTTAACTTATAGTTGCATTTTTATTTCACTGGGATCGTGGGGAC` is recorded as 0.472 ratio.
`GTGAGCGGTGCCCATTGATGGGGAACAATATTTCAAACACTACGTACCCCAACTGACATTTGAGTAGCAGTTAAGTTCTTGGAACGCTGCCATTTTGATCTGTTACGTAACAGCTCATTGTAAACAGGATGAAATAGGGCAGTTAAAAGACTAATGGTCAGTGAAATCTACAACAGGAATGGAAAGAATTTTCCCCTTAAAAATTTGGAAATCCTTATTTTTCACTGGGATCGTGGGGAC` — result for “normalised bound fraction”: 0.0681 ratio.

Set 4
Target: Sal-like protein 4, full length isoform A (SALL4, Homo sapiens, UniProt Q9UJQ4, residues 1-1053)
Sequence of UniProt Q9UJQ4 (whole entry, looked up): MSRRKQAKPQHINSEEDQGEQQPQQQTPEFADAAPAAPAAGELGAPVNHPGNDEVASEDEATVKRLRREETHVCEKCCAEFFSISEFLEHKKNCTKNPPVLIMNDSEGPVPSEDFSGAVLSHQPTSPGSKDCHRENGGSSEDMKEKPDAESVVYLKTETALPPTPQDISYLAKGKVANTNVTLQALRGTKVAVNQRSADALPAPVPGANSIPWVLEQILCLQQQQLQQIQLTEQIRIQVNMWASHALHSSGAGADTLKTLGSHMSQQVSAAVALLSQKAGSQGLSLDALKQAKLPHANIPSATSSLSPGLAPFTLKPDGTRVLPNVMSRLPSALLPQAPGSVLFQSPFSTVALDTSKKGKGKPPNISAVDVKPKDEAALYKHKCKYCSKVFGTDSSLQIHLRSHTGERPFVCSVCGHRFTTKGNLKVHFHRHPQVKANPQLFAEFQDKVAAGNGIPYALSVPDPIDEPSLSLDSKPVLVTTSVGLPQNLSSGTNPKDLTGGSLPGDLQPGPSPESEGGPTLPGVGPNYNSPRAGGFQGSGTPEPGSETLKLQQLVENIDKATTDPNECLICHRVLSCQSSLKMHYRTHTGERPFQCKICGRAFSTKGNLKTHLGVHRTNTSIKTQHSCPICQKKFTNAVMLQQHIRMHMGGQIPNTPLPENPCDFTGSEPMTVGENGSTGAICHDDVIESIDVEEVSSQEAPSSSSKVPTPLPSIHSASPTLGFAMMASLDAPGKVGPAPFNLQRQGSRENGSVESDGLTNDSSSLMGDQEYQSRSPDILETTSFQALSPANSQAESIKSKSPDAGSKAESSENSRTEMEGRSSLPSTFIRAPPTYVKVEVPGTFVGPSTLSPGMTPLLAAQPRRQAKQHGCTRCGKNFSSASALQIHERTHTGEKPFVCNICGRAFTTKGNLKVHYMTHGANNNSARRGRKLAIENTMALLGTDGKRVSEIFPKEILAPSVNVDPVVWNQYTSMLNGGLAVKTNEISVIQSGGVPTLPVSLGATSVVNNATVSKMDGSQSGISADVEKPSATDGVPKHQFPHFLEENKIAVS
Method: universal PBM
Molecule type: double-stranded DNA, one strand shown
Medium: in vitro
Concentration: 600 nM
Notes: 8-mer, flanks averaged, mean of replicates
Direction: higher = stronger binding
For `CCATTACC`, the E-score was -0.159.
For `AGCAGAGC`, the E-score was -0.211.
The E-score of `CCCGCAAG` is reported as -0.349.
With `AACTAGTG` the E-score was -0.0193.
`CGTATGAC` has an E-score of 0.182.
For `TAATTCCA`, the E-score was 0.213.
For `CCAGTCCA`, the E-score was -0.319.

Repeated from above (set 4):
For `TAATTCCA`, the E-score was 0.213.
`CGTATGAC` has an E-score of 0.182.
For `AGCAGAGC`, the E-score was -0.211.
